Published values collected from several papers.
Each line is one published result; not all experiments were run side by side. Values joined by “and” are separate records of one study, mostly repeats; a detail may differ.
SGK1: Serine/threonine-protein kinase Sgk1 (SGK1, Homo sapiens, UniProt O00141)
SGK1 S422D: Serine/threonine-protein kinase Sgk1 (SGK1, Homo sapiens, UniProt O00141, S422D)

Structure (SMILES) | target | assay | test system | conditions | how to read | quantity | result
COc1cc(Nc2nccc(-c3cnn4nc(OC)ccc34)n2)cc(C(F)(F)F)c1 | SGK1 | binding, competition with immobilised ligand | – | 1 µM | – | remaining binding | 92%
Nc1ncc(-c2cc(-c3cnn(CC(F)(F)F)c3)ncc2F)nc1C(=O)NC1CNCC(F)C1 (centres unmarked) | SGK1 | enzyme activity | – | 1 µM | relative to: DMSO control | remaining activity | 95.8%
C=CC(=O)Nc1cccc(-c2cnc3[nH]cc(C(=O)NC(C)(C)C)c3n2)c1 | SGK1 | enzyme activity, inhibitor | – | 0.1 µM | – | inhibition | 5%
COc1ccc(O)cc1-c1c[nH]c2ncc(-c3cncc(C(=O)N(C)C)c3)cc12 | SGK1 | binding, competition with immobilised ligand | – | 0.2 µM | – | inhibition | -0.08%
CCN1CCN(Cc2ccc(C(=O)Nc3ccc(C)c(NCc4cnc5[nH]ccc5c4OC)c3)cc2C(F)(F)F)CC1 | SGK1 | binding, competition with immobilised ligand | – | 1 µM | – | remaining binding | 100%
Cc1cccc(-c2ccc3nc(NC(=O)C4CCCCC4)nn3c2)c1 | SGK1 S422D | enzyme activity, Dundee kinase panel | – | 10 µM | – | remaining activity | 105%
Cc1cccc(O[C@H]2CCC[C@@H](C(C)CNCc3ccncc3)C2)c1 (relative stereo) | SGK1 | enzyme activity, inhibitor | – | 1 µM | – | inhibition | -3%
O=C(Nc1cc(Cl)ccc1O)c1cnc(-c2ccncc2)s1 | SGK1 S422D | – | – | 10 µM | – | inhibition | 57.7%
COCC12C(=O)NC3C4(C(OC)CC1O)C1CC5(O)C(OC)C(O)C(OC(C)=O)(C1C5OC(=O)c1ccccc1)C3(O)C(OC)C24 (centres unmarked) | SGK1 | kinase activity, inhibitor, ProQinase kinase profiling | – | 25 µM | relative to: control | remaining activity | 110% and 100%
NC(=O)[C@@H](O)C[C@H]1CCc2sc3ncnc(O[C@H]4CC[C@H](N5CCOCC5)CC4)c3c21 | SGK1 | enzyme activity, inhibitor | – | 10 µM | – | inhibition | 6%
COc1c(Cl)cccc1Nc1c(-c2ccncc2C#C[C@@]2(C)CCCN2C(=O)/C=C/CN(C)C)[nH]c2c1C(=O)NCC2 | SGK1 | binding, competition with immobilised ligand | – | 3 µM | – | remaining binding | 76%
CNC1C[S+]2CC[S+]3CC[S+](C1)[Ru-4]321([N]=C=S)[n]2c3ccc(OC)cc3c3c4c(c5cc(F)c[n+]1c5c32)C(=O)NC4=O (centres unmarked) | SGK1 | KinomeScan | – | 0.1 µM | relative to: untreated | remaining binding | 77%
Cc1ccc(C)c(-c2ccc3nc(NC(=O)C4CCCCC4)nn3c2)c1 | SGK1 S422D | enzyme activity, Dundee kinase panel | – | 10 µM | – | remaining activity | 96%
CC(C)=CC1OC(C)(C)C2C=C3C(=O)C(Cl)=CC(O)C3C3C(O)C4OC4C(=O)C132 (centres unmarked) | SGK1 | cell-free assay, competition with immobilised ligand | – | 10 µM | – | remaining binding | 67%
Nc1nc(Nc2ccccc2)sc1C(=O)c1ccccc1 | SGK1 | enzyme activity, inhibitor | – | 10 µM | – | remaining activity | 80%
c1ccc2c(Nc3cc(C4CCC4)[nH]n3)nc(Nc3ccc4nc[nH]c4c3)nc2c1 | SGK1 | enzyme activity, inhibitor | – | 0.25 µM | – | remaining activity | 6%
COc1c(OCCCN2CCOCC2)ccc2c1N=C(NC(=O)c1cnc(N)nc1)N1CCN=C21 | SGK1 | kinase activity, inhibitor | – | 1 µM | relative to: untreated control | remaining activity | 98%
Cc1ccc(C(=O)Nc2ccc(CN3CCN(C)CC3)c(C(F)(F)F)c2)cc1C#Cc1cnc2cccnn12 | SGK1 | target engagement, NanoBRET | human cells | – | – | upper asymptote | 33.9
C=CC(=O)N1Cc2nc(-c3cc(-c4cc(Cl)cnc4Cl)c(F)cc3F)n(-c3ccncn3)c2C1 | SGK1 | cell-free assay, inhibitor | – | 1 µM | – | inhibition | 4.8%
Cc1cnc2nc1Nc1cccc(c1)COC/C=C/COCc1cc(ccc1OCCN1CCOCC1)N2 | SGK1 | binding, competition with immobilised ligand | – | 0.1 µM | – | remaining binding | 83%

Excerpt of the above:
Structure (SMILES) | target | assay | test system | conditions | how to read | quantity | result
Cc1ccc(C(=O)Nc2ccc(CN3CCN(C)CC3)c(C(F)(F)F)c2)cc1C#Cc1cnc2cccnn12 | SGK1 | target engagement, NanoBRET | human cells | – | – | upper asymptote | 33.9
C=CC(=O)N1Cc2nc(-c3cc(-c4cc(Cl)cnc4Cl)c(F)cc3F)n(-c3ccncn3)c2C1 | SGK1 | cell-free assay, inhibitor | – | 1 µM | – | inhibition | 4.8%
Cc1cnc2nc1Nc1cccc(c1)COC/C=C/COCc1cc(ccc1OCCN1CCOCC1)N2 | SGK1 | binding, competition with immobilised ligand | – | 0.1 µM | – | remaining binding | 83%
